Published values collected from several papers.
Lines come from different studies, so protocols differ. ± marks the error that the study gave.
Organism: Plasmodium falciparum

Compound = Oc1ccc2c3c1O[C@H]1c4[nH]c5c(c4C[C@@]4(O)[C@@H](C2)N(CC2CC2)CC[C@]314)C[C@@]1(O)[C@H]2Cc3ccc(O)c4c3[C@@]1(CCN2CC1CC1)[C@H]5O4; system = FVO, purified merozoites, erythrocytes; conditions = 50 µM; endpoint = merozoite invasion; value = 100%
Compound = COc1cc(NC(=O)Cn2ccc3ccc(-c4nnc(C)o4)cc32)cc(OC)c1OC; system = 7G8; scale = relative to: 7G8 over 3D7; endpoint = EC50 fold shift; value = 2 fold
Compound = CN1[C@@H]2CC[C@H]1C[C@@H](OC(=O)c1cc(Cl)cc(Cl)c1)C2; system = W2; endpoint = IC50; value = 7.94 µM
Compound = O=C(NC1CC1)c1ccc(N2CCOc3ccc(Cl)cc32)s1; assay = parasite growth, SYBR Green; conditions = 72 h; scale = relative to: 3D7-E182D over 3D7; endpoint = EC50 ratio; value = 5
Compound = CCN(CC)CCCC(C)Nc1ccnc2cc(Cl)ccc12 (centres unmarked); assay = growth, [3H]-hypoxanthine uptake; system = Dd2; conditions = 72 h; scale = relative to: Dd2 IC50 over 3D7 IC50; endpoint = resistance index; value = 3.3
Compound = COC(=O)[C@H]1[C@H]2C[C@@H]3c4[nH]c5cc(OC)ccc5c4CCN3C[C@H]2C[C@@H](OC(=O)c2cc(OC)c(OC)c(OC)c2)[C@@H]1OC; system = HB3; endpoint = IC50; value = 1.26 µM
Compound = CC(C)C[C@H](NC(=O)[C@H](Cc1ccccc1)NC(=O)c1cnccn1)B(O)O; system = Dd2 β3 R190S resistant; endpoint = EC50; value = 0.06 ± 0.0095 µM
Compound = Cn1cc(-c2ccc3ccn(CC(=O)Nc4ccccc4Cl)c3c2)cn1; system = 7G8; scale = relative to: 7G8 over 3D7; endpoint = EC50 fold shift; value = 2 fold
Compound = CC(C)C[C@H](NC(=O)[C@H](Cc1c[nH]c2ccccc12)NC(=O)CN1CCOCC1)C(=O)N[C@H](/C=C/S(C)(=O)=O)Cc1c[nH]c2ccccc12; system = Dd2 β5 S28L resistant; endpoint = EC50; value = 0.0096 ± 0.00088 µM
Compound = CNCCC(Oc1ccccc1OC)c1ccccc1 (centres unmarked); system = W2; endpoint = IC50; value = 0.794 µM
Compound = CO[C@@]12[C@H](COC(N)=O)C3=C(C(=O)C(C)=C(N)C3=O)N1C[C@@H]1N[C@@H]12; scale = relative to: IC50 Dd2 over IC50 3D7; endpoint = resistance index; value = 0.65
Compound = CN(Cc1ccco1)c1ncnc2ccc(-c3ccoc3)cc12; system = FVO, purified merozoites, erythrocytes; conditions = 50 µM; endpoint = merozoite invasion; value = 89%
Compound = Cc1cccc(C(=O)N2CCN(Cc3cccc(NC(=O)c4cccs4)c3)CC2)c1.O=C(O)C(F)(F)F; assay = parasite growth, SYBR Green; conditions = 72 h; scale = relative to: 3D7-E182D over 3D7; endpoint = EC50 ratio; value = 4.5
Compound = CC1(C(=O)O)C2CCC(O2)C1(C)C(=O)O (centres unmarked); system = Dd2; endpoint = IC50; value = 7.94 µM
Compound = CCCCN(C)CC#Cc1ccc2[nH]c(C)c(Cl)c(=O)c2c1; assay = parasite growth, SYBR Green; system = 3D7 DHODH E182D; conditions = 72 h; endpoint = EC50; value = 0.399 ± 0.029 µM
Compound = c1cc([C@H]2CC[C@]3(CC2)OO[C@]2(O3)C3CC4CC(C3)CC2C4)ccc1OCCN1CCOCC1; system = human patients, malaria; conditions = oral, 200 mg; endpoint = lag phase duration; value = 6 h
Compound = C[C@@H]1CN(c2ccnc3ccc(Sc4ccc(Oc5ccccc5)cc4)cc23)C[C@H](C)N1; assay = parasite growth, SYBR Green; system = 3D7 wild type; conditions = 72 h; endpoint = EC50; value = 0.6 ± 0.045 µM
Compound = COc1cc2c(cc1C(F)(F)F)N(C(=O)Nc1cc(F)cc(-c3cccnc3)c1)CC2; system = D10; endpoint = IC50; value = 2 µM
Compound = CCn1c(-c2ccccc2)cc2nnc3ccccc3c21; assay = parasite growth, SYBR Green; conditions = 72 h; scale = relative to: 3D7-E182D over 3D7; endpoint = EC50 ratio; value = 2.2
Compound = C[C@@H]1CC[C@H]2[C@@H](C)C(=O)O[C@@H]3O[C@@]4(C)CC[C@@H]1[C@]32OO4; system = 3D7; conditions = 3 x IC50, treatment from late stage; endpoint = new ring formation; value = 3 to 5%
Compound = Fc1ccc([C@@H]2CCNC[C@H]2COc2ccc3c(c2)OCO3)cc1; system = 3D7; endpoint = IC50; value = 6.31 µM
Compound = O=C(c1ccc(Cl)cc1)N1CCCC(C(=O)N(Cc2nnc(-c3ccccc3Cl)o2)C2CC2)C1 (centres unmarked); assay = parasite growth, SYBR Green; system = 3D7 wild type; conditions = 72 h; endpoint = EC50; value = 0.119 ± 0.027 µM
Compound = O=C(O)C1=CC(=C(c2ccc(O)c(C(=O)O)c2)c2ccc(O)c(C(=O)O)c2)C=CC1=O; system = HB3; endpoint = IC50; value = 5.01 µM
Compound = Cc1[nH]c2ccc(-c3ccccc3)cc2c(=O)c1Br; assay = parasite growth, SYBR Green; conditions = 72 h; scale = relative to: 3D7-E182D over 3D7; endpoint = EC50 ratio; value = 3.4
Compound = NC(=NCc1ccccc1)NC(=O)c1nc(Cl)c(N)nc1N; system = Dd2; endpoint = IC50; value = 12.6 µM
Compound = OC(c1cc(C(F)(F)F)nc2c(C(F)(F)F)cccc12)C1CCCCN1 (centres unmarked); assay = parasite growth; endpoint = EC50; value = 0.0163 ± 0.0064 µM

Excerpt of the above:
Compound = Fc1ccc([C@@H]2CCNC[C@H]2COc2ccc3c(c2)OCO3)cc1; system = 3D7; endpoint = IC50; value = 6.31 µM
Compound = CCCCN(C)CC#Cc1ccc2[nH]c(C)c(Cl)c(=O)c2c1; assay = parasite growth, SYBR Green; system = 3D7 DHODH E182D; conditions = 72 h; endpoint = EC50; value = 0.399 ± 0.029 µM
Compound = CC1(C(=O)O)C2CCC(O2)C1(C)C(=O)O (centres unmarked); system = Dd2; endpoint = IC50; value = 7.94 µM
Compound = COc1cc(NC(=O)Cn2ccc3ccc(-c4nnc(C)o4)cc32)cc(OC)c1OC; system = 7G8; scale = relative to: 7G8 over 3D7; endpoint = EC50 fold shift; value = 2 fold
